Assay results pooled from the literature.
A part holds a random share of what one study measured. ± marks the error that the study gave. Converted amounts (≈) assume the structure as drawn.
UniProt Q91X56, sequence (whole entry, looked up): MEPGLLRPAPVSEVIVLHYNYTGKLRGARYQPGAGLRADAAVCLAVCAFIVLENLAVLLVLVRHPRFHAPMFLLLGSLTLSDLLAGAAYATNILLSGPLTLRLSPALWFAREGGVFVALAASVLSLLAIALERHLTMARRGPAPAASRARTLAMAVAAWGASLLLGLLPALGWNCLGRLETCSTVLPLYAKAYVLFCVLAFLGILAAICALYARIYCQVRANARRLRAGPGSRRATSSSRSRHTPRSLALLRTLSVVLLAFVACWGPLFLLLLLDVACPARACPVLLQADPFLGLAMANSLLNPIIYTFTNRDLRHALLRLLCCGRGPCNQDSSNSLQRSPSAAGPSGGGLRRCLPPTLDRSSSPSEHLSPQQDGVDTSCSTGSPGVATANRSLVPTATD
UniProt P31424, sequence (whole entry, looked up): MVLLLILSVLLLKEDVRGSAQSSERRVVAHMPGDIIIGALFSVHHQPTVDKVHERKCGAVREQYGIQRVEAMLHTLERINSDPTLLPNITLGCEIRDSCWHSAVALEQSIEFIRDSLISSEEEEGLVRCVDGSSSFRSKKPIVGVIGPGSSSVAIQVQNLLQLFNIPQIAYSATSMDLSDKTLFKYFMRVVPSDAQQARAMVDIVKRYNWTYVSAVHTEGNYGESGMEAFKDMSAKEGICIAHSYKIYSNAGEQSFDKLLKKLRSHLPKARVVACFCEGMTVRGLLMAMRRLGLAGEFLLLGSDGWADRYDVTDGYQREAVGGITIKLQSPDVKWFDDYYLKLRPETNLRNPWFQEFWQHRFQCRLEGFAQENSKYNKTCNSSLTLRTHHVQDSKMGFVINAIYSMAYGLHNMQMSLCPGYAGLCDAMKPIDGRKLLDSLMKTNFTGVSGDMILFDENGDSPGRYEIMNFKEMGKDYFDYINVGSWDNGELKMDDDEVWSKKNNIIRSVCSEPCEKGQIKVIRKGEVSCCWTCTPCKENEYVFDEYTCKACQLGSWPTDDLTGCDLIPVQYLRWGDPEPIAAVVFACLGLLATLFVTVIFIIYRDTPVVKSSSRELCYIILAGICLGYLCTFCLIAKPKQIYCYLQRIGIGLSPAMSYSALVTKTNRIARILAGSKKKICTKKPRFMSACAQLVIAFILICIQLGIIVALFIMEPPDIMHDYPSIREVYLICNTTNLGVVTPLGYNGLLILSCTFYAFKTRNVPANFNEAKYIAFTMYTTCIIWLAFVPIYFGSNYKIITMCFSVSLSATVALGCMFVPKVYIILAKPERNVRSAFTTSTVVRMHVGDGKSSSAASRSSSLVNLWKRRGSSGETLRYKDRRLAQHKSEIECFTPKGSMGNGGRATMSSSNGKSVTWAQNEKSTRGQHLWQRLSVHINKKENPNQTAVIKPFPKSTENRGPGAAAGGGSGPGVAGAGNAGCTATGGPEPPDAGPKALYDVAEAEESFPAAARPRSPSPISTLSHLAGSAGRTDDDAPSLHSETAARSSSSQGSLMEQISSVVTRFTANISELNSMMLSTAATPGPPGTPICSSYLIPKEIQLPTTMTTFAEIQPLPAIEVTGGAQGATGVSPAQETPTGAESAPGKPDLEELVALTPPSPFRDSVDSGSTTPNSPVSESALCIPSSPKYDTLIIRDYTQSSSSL

Sample 1 — time: 18 h; temperature: 37 °C; measurement: MIC
Structure (SMILES): CC[C@H](C)[C@H](NC(=O)[C@H](CCCCN)NC(=O)[C@H](CCC(N)=O)NC(=O)[C@H](Cc1ccccc1)NC(=O)[C@@H](NC(=O)[C@H](CCCCN)NC(=O)[C@H](CCCCN)NC(=O)[C@H](CC(C)C)NC(=O)[C@H](C)NC(=O)[C@H](CC(N)=O)NC(=O)[C@@H](N)CC(C)C)C(C)C)C(=O)N[C@@H](Cc1c[nH]cn1)C(N)=O
organism = Acinetobacter baumannii; technique = broth microdilution; strain = ATCC 19606; value = 4 µM (≈ 5.75 µg/mL)
organism = Pseudomonas aeruginosa; strain = 4891, resistant; value = 8 µM (≈ 11.5 µg/mL)
organism = Escherichia coli; strain = CCARM 1229, resistant; value = 4 µM (≈ 5.75 µg/mL)

Mixed results
MAOB: Amine oxidase [flavin-containing] B (MAOB, Homo sapiens, UniProt P27338)
UniProt P27338, sequence (whole entry, looked up): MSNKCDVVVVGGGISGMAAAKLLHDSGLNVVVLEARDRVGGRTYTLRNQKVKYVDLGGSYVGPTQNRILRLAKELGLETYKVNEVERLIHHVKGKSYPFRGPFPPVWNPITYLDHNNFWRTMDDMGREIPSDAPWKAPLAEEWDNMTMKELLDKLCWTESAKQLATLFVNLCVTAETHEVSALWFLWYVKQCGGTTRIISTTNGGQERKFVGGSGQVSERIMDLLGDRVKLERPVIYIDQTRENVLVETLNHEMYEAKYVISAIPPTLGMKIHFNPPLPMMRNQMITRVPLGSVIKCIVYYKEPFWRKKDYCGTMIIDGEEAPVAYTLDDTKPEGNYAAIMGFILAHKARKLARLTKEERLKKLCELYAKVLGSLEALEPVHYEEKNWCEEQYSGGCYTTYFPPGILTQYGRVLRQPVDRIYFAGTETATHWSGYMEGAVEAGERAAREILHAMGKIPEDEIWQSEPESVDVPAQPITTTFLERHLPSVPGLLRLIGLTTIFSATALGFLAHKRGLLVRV
SMILES = N#Cc1cnc(Nc2nc3ccccc3o2)nc1-c1cccnc1; tested on = Grm5 (Rattus norvegicus, UniProt P31424); assay = calcium mobilization, negative allosteric modulator, cell-based; conditions = together with: glutamate at EC80; scale = relative to: maximal glutamate response; measurement = maximum response; value = 2.1 ± 0.7%
SMILES = NC1CC1c1ccc(NC(=O)Cc2cccc3ccccc23)cc1 (centres unmarked); tested on = MAOB; assay = enzyme activity, inhibitor, HRP-coupled; conditions = 100 µM, together with: benzylamine substrate; measurement = inhibition; value = 48%
SMILES = CCCCCn1ccc(=O)c(O)c1C; assay = shake-flask method, refers to: iron(III) complex; system = 1-octanol/tris buffer; conditions = pH 7.4, together with: iron(III), ligand:iron 10:1; scale = relative to: octanol over buffer; measurement = partition coefficient; value = 480 ± 60
SMILES = NC1CC1c1ccc(NC(=O)Cc2ccc3ccccc3c2)cc1 (centres unmarked); tested on = MAOB; assay = enzyme activity, inhibitor, HRP-coupled; conditions = 100 µM, together with: benzylamine substrate; measurement = inhibition; value = 17%
SMILES = CC(C)(C)[C@H]1CC[C@H](Oc2cc([18F])c3ccccc3c2CN2CCC(C(=O)O)CC2)CC1; tested on = Sphingosine 1-phosphate receptor 5 (S1pr5, Mus musculus, UniProt Q91X56); assay = saturation autoradiography; system = C57BL/6 mouse brain sections; measurement = Bmax; value = 427 ± 38.5 fmol/mg

Repeated from above (mixed results):
SMILES = NC1CC1c1ccc(NC(=O)Cc2cccc3ccccc23)cc1 (centres unmarked); tested on = MAOB; assay = enzyme activity, inhibitor, HRP-coupled; conditions = 100 µM, together with: benzylamine substrate; measurement = inhibition; value = 48%
